Published values pooled from the literature.
Every numbered part comes from another study and shows a few of its results, in no order.

Set 1 — technique: RNA Bind-n-Seq; form: RNA; medium: in vitro; tested at: 365 nM; baseline: no-protein control; direction: higher = stronger binding
Target: RNA binding protein fox-1 homolog 2, RRM domain, GST-SBP tag (RBFOX2, Homo sapiens, UniProt O43251-10, residues 100-194)
Notes: natural RNA segment, single round, ends assumed
Constant ends, left off below: GGGAGUUCUACAGUCCGACGAUC … UGGAAUUCUCGGGUGCCAA
Construct (chain): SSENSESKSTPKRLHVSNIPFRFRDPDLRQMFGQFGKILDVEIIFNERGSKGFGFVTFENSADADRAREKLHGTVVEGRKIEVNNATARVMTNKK
Strand	RBNS enrichment (R)
CACAUUUUCUCAGUGUGCCCUUCUCUUAUCUGCCAUGUCCAUAGCCAUAAUUCCACCAUCAUACAGAUCAGGCAGUGUUUAAAAUGAUGGUAGGUAGCACAGUGGACAGU	0.494
UUGAAUGUAGCUCUUGGGAAUGCAUUAUUACAUCCAUUUCUGUAACAUAAUAAUAUGUUGCAUGCAGUUAUAUUUUCUAUUUAGUCUGUAUAUUUUGUUCUUCAUAGUCU	1.14
GGCAGAUGCCUGACAGAGAGUGGGUUGGCAGACAACACACUAGCAUUUUCACGGGUGUGGGCACAUGGGUGUGGCACCUGGACGUGUGCAGCAUGUGGCGGUCUGUGUGA	2.32
CAGAGCCCAUCUGCCUUACAGCCAGCCGGACAGACGUCCUACUACAUGCCACCCCCUCAGAGGACGUCAGUUCAGGGCACGUCUCAAUAUGAGUCAAGUGCCAGCUGGAC	0.194
CUUAGCAAACCAGCAUAAGAGAAUCUACCCAUGGAAUGUUCUGGAAGGUGGGCAGUCCAGGUUACAGUUGAUGAAGGAAACAGUGCCUGUCUGCCUCUCAUGUGUGACCC	1.03
CAGUGAGCGGCAGCCUCAGGGGCCUCAGGGGAGCCCCCACCCCACGGAUGUUGUCAGGAAUCAUGAUCUGACUUUAAUUGUGUGUCUUCUAUUAUAACUGCAUAGUAAUA	0.686
AUGCUGGUCUUUCCGACCUGGUGCUCUUCUGCUGGGGGACUGAGGCUGGCCCUCAUUCGGGGUCGGGAACCAAGGGUGUGUCUGCUCUUUCCCUCCCCAUCCUCUGGCAG	0.225
UAGGACCAGAGCGGUAUCUCUGGCACCACACUAGGGACUAUCAGGUAAUAAAAGCUUUGACUCCCUGAGGAAAUGUCUCUCCCUUUGUCUGGGGGUGGGGCAGCCAUACA	0.47
CUCAUCCAAACAAUUUAAAAAUGAGUGUGAAGGGGGAACAAGUCAAAAUAUUUUUAAAAGAUCUUCAAAAGUAAUGCCUCUGUCUAGCAUGCCAACAAGAAUGCAUUGAU	13.6
GGGACCCAGGUGGGACUUAGCAGUGAGUAUUGGAAGACUUGGGUUGAUCUCUUAGAAGCCAUGGGACCUCCUCCCUCAUUCAUCUUGCAAGCAAAUCCCAUUUCUUGAAA	0.553
GCAGAUGCACAUGUUGGAGGAGAGAGCCUUGGGAGCCACUGCCACUCCAGUCCUGCCACCACCCUGUCUUCCUCUGCAAGUGCUCAGGGAAAUGGCCUUCCCGCCGGAGG	0.431
UUGGCACUCACUAGCUGCCCCUACAGCUUGCCUCUGGGCCUCAGAGAGGGGUGUUUCUGCCCGGGUUGCCCUCCUUCAGUGAGUCAGAAGAACCUUCUGGGCCUAGAGGC	0.402

Set 2 — technique: protein binding microarray; form: double-stranded DNA, one strand shown; medium: in vitro; tested at: not given; baseline: not given; direction: higher = stronger binding
Target: Histone acetyltransferase KAT6A, winged helix 2, GST fusion (KAT6A, Homo sapiens, UniProt Q92794, residues 85-181)
Notes: 8-mer, flanks averaged, mean of 2 arrays, mostly near background
Target sequence (chain): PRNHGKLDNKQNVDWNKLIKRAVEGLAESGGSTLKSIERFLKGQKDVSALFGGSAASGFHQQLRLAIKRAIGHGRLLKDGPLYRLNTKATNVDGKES
Strand	E-score
AGACGTCG	-0.0773
CGAACACA	0.141
ATACCCGA	-0.0596
CGCTGCAC	0.0687
ACCCGATC	-0.0707
CGTAACAG	-0.162
AGCCGACG	0.00834
GAGCCACC	0.0417
CCAGACCA	-0.0106
CCTAGCCC	0.0781
CTTGATTA	-0.0367
ACGTAGGA	-0.0955
ACCACCAG	0.0373
ATCGGTCC	0.0643
TAGCGACA	0.0288
GGAAACTA	0.047
ATGTTATA	-0.0437
AGTACCAG	0.0688
CCAGTTAA	0.0943
GTTCCGTA	-0.0156
AGGTCTTG	0.132
AGCAAAAC	0.061
AGCTGATA	-0.104
AAACCGGT	-0.127
ACACCTTA	0.00475

Set 3 — technique: protein-binding microarray; form: double-stranded DNA, one strand shown; medium: in vitro; tested at: 2540 nM top; notes: 60-bp whole probe; with: salmon DNA 0.4 mg/ml; baseline: random background probes; direction: higher = stronger binding; constant ends, left off below: GCCTAGCAC … GTCTTGATTCGCTTGACGCTGCTG
Target: Interferon regulatory factor 3, full length, phosphomimetic (IRF3, Homo sapiens, UniProt Q14653, residues 1-427, S386D/S396D/S398D/S402D/T404D/S405D)
Chain of UniProt Q14653 (whole entry, unmodified, looked up): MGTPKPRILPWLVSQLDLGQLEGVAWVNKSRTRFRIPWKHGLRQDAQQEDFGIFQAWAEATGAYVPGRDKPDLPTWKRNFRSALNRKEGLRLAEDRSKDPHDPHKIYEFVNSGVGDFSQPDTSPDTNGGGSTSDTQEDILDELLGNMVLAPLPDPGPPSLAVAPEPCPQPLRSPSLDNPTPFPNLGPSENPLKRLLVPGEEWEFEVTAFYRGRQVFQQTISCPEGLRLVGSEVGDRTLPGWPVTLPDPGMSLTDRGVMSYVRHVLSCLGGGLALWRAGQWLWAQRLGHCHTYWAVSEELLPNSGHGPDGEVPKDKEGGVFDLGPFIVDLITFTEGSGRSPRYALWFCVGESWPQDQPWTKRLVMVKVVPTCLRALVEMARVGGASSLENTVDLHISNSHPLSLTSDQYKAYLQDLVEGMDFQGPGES
Strand	fitted relative affinity [z-score]
GACTGACTGCTTTTCCTGACGTGCTAG	-0.19
GTTCTTATCCTTCCCCTCTAGTGCTAG	1.95
TTAGGACTGCTTATCCTTTCGTGCTAG	0.48
TTAGAACTGAGTTTCCATTAGTGCTAG	2.76
TTAGGACTCGGTTTCGGTTAGTGCTAG	4.64
TTAGGTATCCTTATCCTTCAGTGCTAG	5.34
TTAGATTTCACTTCCGATTAGTGCTAG	3.98
GACGGTTCACTTTTCCTGACGTGCTAG	2.49
TCAGGTTCCCTTTTCCTTTAGTGCTAG	6.73
GACGATCTCAGTTTCGTGACGTGCTAG	2.07
GACGGCCTCCTTCTCCTGACGTGCTAG	0.742
GACGATTCCAGTTTCGAGATGTGCTAG	3.31
GACGGTCTGGACACTGGGGACGTGCTA	-0.538
TTAGAACTGAGTTTCGACTAGTGCTAG	0.661
GACCAACTGAGTATCGAGACGTGCTAG	0.117
GACGGACGGCTTCTCCTGACGTGCTAG	-0.717
TTAGATATCAGTTTCGAATAGTGCTAG	3.94
TTAGTACTGGGGACTGGGTTAGTGCTA	-0.732
GACGATTTCAGACTGGAGAGGTGCTAG	0.946
GACGAGTTCGGGTTTCGAGACGTGCTA	0.861
TATGTTTTTCATTTTGTTCAGTGCTAG	2.07
TTAGGTATCGGGTTTCGGATAGTGCTA	3.42

Set 4 — technique: RNA Bind-n-Seq; form: RNA; medium: in vitro; tested at: not given; notes: RNA with constant flanks, ends assumed; baseline: input RNA pool; direction: higher = stronger binding
Target: RING finger protein unkempt homolog, zinc fingers 1-6, GST-SBP tag (UNK, Homo sapiens, UniProt Q9C0B0, residues 30-357)
Constant ends, left off below: GGGAGUUCUACAGUCCGACGAUC … CAACAGAGGAUUGAGCAUCA
Target sequence (chain): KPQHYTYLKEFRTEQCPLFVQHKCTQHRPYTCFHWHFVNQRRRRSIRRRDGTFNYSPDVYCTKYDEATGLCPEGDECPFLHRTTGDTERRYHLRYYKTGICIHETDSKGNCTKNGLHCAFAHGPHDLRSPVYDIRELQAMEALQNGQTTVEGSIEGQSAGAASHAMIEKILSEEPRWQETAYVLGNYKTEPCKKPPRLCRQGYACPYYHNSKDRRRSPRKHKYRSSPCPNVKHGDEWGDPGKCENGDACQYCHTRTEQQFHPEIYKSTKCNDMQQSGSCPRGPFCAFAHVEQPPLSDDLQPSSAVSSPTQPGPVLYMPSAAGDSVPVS
Strand	bound/input enrichment
AGGCAUUAUCUCAUUCAUACCGGUCAAAAGCCAUUUGAAUGUGAUGUGUGCCAUAAAAACUUCCGACAACUCGUUCAUCUGGAGAGGCAUCAGUUAACUCACAAUCUGCCUUUCAGUUGU	0.057 ratio
ACUGAAAUACUUAAUGAGCAAUUACUUGAUUUUUAAUGAUGACUUCGAAGGAGUCAUCACCCGGUGCUUUGUCCUUUUUGUAUUCUAGUUGCACCCACCUCUUGGAUUGGAUAUAGCAAU	4.04 ratio
GAAGAGGAAAGAUUAGUAUCUCUUGUAUUUGGGCUUUUGAAACAAAGAAAACUUAAUUUUUCCGAAAUCUAUGGUGAAGAAAUGAUUAUUACAGCAAAGAACAUCAUUAAAGAGCGUGUG	0.524 ratio
CAUGGACAUCAUAAAAUGGAACUUCCAGAUUAUAGACAAUGGAAGAUAGAAGGGACACCAUCCGAAACUAUCCAGAAGAAGCUGGCUGCAAAAGGGCUAAGGGAUCCAUGGGGCCGCAAU	0.852 ratio
UUCUCAGCAUGGGGAAAUAACAGUUCUCAGGGACAGUCUACUCAGAGCUCUGGAUACCGCCGCAAUUAUGCUUAUGCACCUAGCUCCUUAGGUGGAGCCAUGAUUGAUGGACAGUCAGCU	0.11 ratio
AGAAAAUUGUGCUACAGUGUGUGUGUGCGUGUGUGUAUGUGUAGUGCUAGGAGUCCACAGCCGGUUGCUUGUCAAGCCAUUGCCGUGACAAUGGCAUCUCUUAUAUUGACCCAAAAACCA	0.284 ratio
UUCUUUAUGUUUGUAGUCUUGAUGUGCUCCUGUGGUAUUACUUCCCCUCUGAUAGGACAUUGCCGCCAGCCUCAGCACUCAGUGAGUUCAUCAGGGCCACACCCAGUAGAGAAGGCCAAG	0.906 ratio
GUGAGAGGCGAGAAGGAGGCUCUAGACCUGCGAAAGGAAAAAGAAACCCUUGAGAGGAAACUCCGAGAUGCAAGUAAGGAAUUGGAGAAAAACACUAACAAAAUUAAGCAGCUGUCUCAG	0.343 ratio
AUGGUGCAAAAUGUGAGCUUCAAGUAUACAAAAGAUGGGCCUUGCAUCUACAAUAAUCCCGAAUUUGGAAUUGACCUUGACACACGAGUGGCUCUGGUAGGGCCCAAUGGAGCAGGGAAG	0.208 ratio
UAAACAUUGUAUGCAUUUUGAUUUUUCCUACUUUAAGAAAAUAAAAUAAUUUAAUUUUACAUCCGAUUCCACGUUAGAUUUGGUUUGAAAAACUAAAAUUUCAGAUUUCUGAGGAUAUAC	0.666 ratio
UGAGAAUGUUAUUUAAAGUUGUAUUAUAAUGUCACCUCCAAUAAUUAUUCAGUACUGCCGCCGCAAUGUGUUAUUUGUAAGAAUUUGGUUAUUUUUUAUACUUAUAUCCACUCUAAGUCU	0.295 ratio

A few entries again (set 2):
Strand	E-score
CCAGACCA	-0.0106
CCTAGCCC	0.0781
CTTGATTA	-0.0367
ACGTAGGA	-0.0955
ACCACCAG	0.0373
ATCGGTCC	0.0643
TAGCGACA	0.0288
GGAAACTA	0.047
ATGTTATA	-0.0437
AGTACCAG	0.0688
CCAGTTAA	0.0943
GTTCCGTA	-0.0156
